{"data": "Experimental data gathered from unrelated publications", "note": "Each numbered part is a random draw from the data of one study; scales do not carry over between parts."}
{"data": "Sample 1", "target": "RNA binding protein fox-1 homolog 2, RRM domain, GST-SBP tag (RBFOX2, Homo sapiens, UniProt O43251-10, residues 100-194)", "method": "RNA Bind-n-Seq", "molecule type": "RNA", "sample": "in vitro", "tested at": "365 nM", "setting": "natural RNA segment, single round, ends assumed", "reference": "no-protein control", "direction": "higher = stronger binding", "Residues (chain)": "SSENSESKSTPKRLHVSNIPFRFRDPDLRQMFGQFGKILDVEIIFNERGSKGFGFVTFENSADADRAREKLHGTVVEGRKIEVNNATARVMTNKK"}
{"Sequence": "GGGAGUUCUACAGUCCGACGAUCACCCAUGAGGAAUUCGUGGAAUGGCUACUGCUGACUAACAUGAUGCACAUAACCAAAUGGGGGCCAAUGGCACAGUACCUUACUCAUCAUUUAAAAACUAUAUUUACAGAUGGAAUUCUCGGGUGCCAA", "RBNS enrichment (R)": 0.555}
{"Sequence": "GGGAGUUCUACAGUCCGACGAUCCUUUCUUCUUGCCCAGCUCUGUCGAAUUCAUGGGUGUGUGUGCACAUGUUGGUUUCACUCACCCAGAGUAAUUUUGUGAGCAUGCAUGUGCUUUUUAAUUUCUGCUUGAAUGGAAUUCUCGGGUGCCAA", "RBNS enrichment (R)": 7.42}
{"Sequence": "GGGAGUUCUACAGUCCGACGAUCGACUAGUGUGGUAACUAGGGAACAGAUGGCACUGCAGAGUGCUUCCCGCUCAUAUGAGAGAGCAGGUGUCUGCCCUUGAGAGCUGGUGAGCCGCGUCAUCUGUUUGCGCUUGGAAUUCUCGGGUGCCAA", "RBNS enrichment (R)": 0.346}
{"Sequence": "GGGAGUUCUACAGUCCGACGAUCACAUCUCUCCUCACCUCAUGAUUGUCAUUGCCUCGGUGUGAGGCUCUGAACGGUCGCCACCUCAGGGCAUUUUCCUGAGGCUCUGCUGCAAAAAAAAAAAAAAAAAUGAAUGGAAUUCUCGGGUGCCAA", "RBNS enrichment (R)": 0.593}
{"Sequence": "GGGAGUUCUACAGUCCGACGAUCUCAGGCAGGAUUCCUGUGGACUUUGAGAUUCAUGUUACCUCAUCUUCUUUUUUAAACUGUACCCAACUUGUGAGGGUACUCUGUCUAAUGUAUAUUUCUAGUGUUUACAGUGGAAUUCUCGGGUGCCAA", "RBNS enrichment (R)": 0.504}
{"Sequence": "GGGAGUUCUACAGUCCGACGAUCAUUUCUAGCAUGCUUUUAAUUUCAGAUUUUCAGCUGACAUUAGCUAUAGUAUACAGUAGGUUAAGACUCAUGUCUAUGACUUUCACUCUAAGACUGGCAAAAGGACAGCAUGGAAUUCUCGGGUGCCAA", "RBNS enrichment (R)": 2.17}
{"Sequence": "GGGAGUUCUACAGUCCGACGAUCAGAAAAAUCUGAAGGUCAGCGGAGACCUCAGAGAAAACGGGGGCAAAGUGUCUUAGGCCAGAAGUACGCUGUAGCAUUGUAACAUUGUGCAGAUGGAGACACCCCACCCCUGGAAUUCUCGGGUGCCAA", "RBNS enrichment (R)": 0.478}
{"Sequence": "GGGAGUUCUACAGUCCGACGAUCAUCACCUUGCCUUCCUCUCUAGCAUUCUGCAGGAGUGAUGCCCACGGAGCCUUGGGCUUCUGCGUGUUGCCUGACUGUACAAAAGUCUAGUCUCAAAGAUCAAGUUGGUCUGGAAUUCUCGGGUGCCAA", "RBNS enrichment (R)": 0.549}
{"Sequence": "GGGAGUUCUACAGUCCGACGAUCUUCGUUUUUGCAUGAAUCGCGAUAUUUUGUACUUUUAAAAACUCCAACUUCCACAAAACAACUCAAGGCCUCCAAGUAUCAAGAUGUCCUGAAAUUUUUUUUUUUUUAGCUGGAAUUCUCGGGUGCCAA", "RBNS enrichment (R)": 71.3}
{"Sequence": "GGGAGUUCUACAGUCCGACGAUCAUAGUAGUUUACUAUUAACUAGGAAGACUGGUGUAUGAGGAGGGAGACAUUCUGUAAUAAGAUUAAAACCUAAAGUCAGCUGUGUAACAUUCCAUGAAAGAUGCAUUCAUUGGAAUUCUCGGGUGCCAA", "RBNS enrichment (R)": 0.383}
{"Sequence": "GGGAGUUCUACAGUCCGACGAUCGGGGGCCAGGGGUCAUCGGUUUGACCCCUGACCUAUAAGCCAAGAUACCCCAUAAACACACUCAGAAAGCAGAGAAAAAGGACAAGAGUCUGUGUUUGAGAGGGGGUCUGUGGAAUUCUCGGGUGCCAA", "RBNS enrichment (R)": 0.492}
{"Sequence": "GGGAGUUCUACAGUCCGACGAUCUUGUUCUGGUGGGUGUGUCACGCUCCCAGAAGACUGAAUUCAUGGUAGGAUCACUCGCAAGGCCUUGUGAAGGAGUCUUACCUAAAACGAAAGAAAUAUCAGGGACUUUUUGGAAUUCUCGGGUGCCAA", "RBNS enrichment (R)": 0.239}
{"data": "Sample 2", "target": "Sal-like protein 4, full length isoform B (SALL4, Homo sapiens, UniProt Q9UJQ4-2, residues 1-616)", "method": "universal PBM", "molecule type": "double-stranded DNA, one strand shown", "sample": "in vitro", "tested at": "not given", "setting": "8-mer, flanks averaged, mean of replicates", "direction": "higher = stronger binding", "Target sequence (chain)": "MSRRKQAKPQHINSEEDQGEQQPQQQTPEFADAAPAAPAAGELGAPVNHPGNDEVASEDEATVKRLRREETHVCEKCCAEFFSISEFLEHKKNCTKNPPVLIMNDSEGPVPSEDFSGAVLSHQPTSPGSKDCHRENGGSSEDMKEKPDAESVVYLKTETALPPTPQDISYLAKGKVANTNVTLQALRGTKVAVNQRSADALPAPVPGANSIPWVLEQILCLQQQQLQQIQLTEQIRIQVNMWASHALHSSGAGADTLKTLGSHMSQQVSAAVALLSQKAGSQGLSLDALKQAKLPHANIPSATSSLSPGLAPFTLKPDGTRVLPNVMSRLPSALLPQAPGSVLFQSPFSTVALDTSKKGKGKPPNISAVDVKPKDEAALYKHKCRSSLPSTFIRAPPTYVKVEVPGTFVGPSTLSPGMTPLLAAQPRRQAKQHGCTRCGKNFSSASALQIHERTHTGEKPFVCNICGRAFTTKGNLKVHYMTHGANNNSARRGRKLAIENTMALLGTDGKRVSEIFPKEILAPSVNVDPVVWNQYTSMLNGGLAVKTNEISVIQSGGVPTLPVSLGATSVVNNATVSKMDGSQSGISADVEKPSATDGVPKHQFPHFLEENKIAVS"}
{"Sequence": "CTAGGACC", "E-score": -0.275}
{"Sequence": "AATCCTCG", "E-score": -0.165}
{"Sequence": "ATCGCCAT", "E-score": 0.0241}
{"Sequence": "ATGACGGC", "E-score": -0.0621}
{"Sequence": "GTTTTGGA", "E-score": 0.114}
{"Sequence": "TACTTGCA", "E-score": 0.21}
{"Sequence": "ACGCTCCT", "E-score": -0.104}
{"Sequence": "CCAACTGA", "E-score": -0.0111}
{"Sequence": "GTACGAAA", "E-score": 0.12}
{"Sequence": "ACATGTAG", "E-score": 0.183}
{"Sequence": "CCCCTAGA", "E-score": 0.0635}
{"Sequence": "CGGTTGAC", "E-score": -0.211}
{"Sequence": "CATTCGTA", "E-score": 0.242}
{"Sequence": "GGTTGGAA", "E-score": -0.239}
{"Sequence": "CCGCCGAA", "E-score": -0.278}
{"Sequence": "GAGCTACC", "E-score": -0.0943}
{"Sequence": "ATGCCAGG", "E-score": -0.198}
{"Sequence": "GGAAGTCA", "E-score": -0.117}
{"Sequence": "AGGTCTCC", "E-score": -0.105}
{"Sequence": "ACTTGACG", "E-score": -0.0303}
{"Sequence": "ATGCTCCA", "E-score": -0.183}
{"data": "Sample 3", "organism": "Saccharomyces cerevisiae", "effect on": "binding", "method": "yeast competitive growth sequencing", "molecule type": "peptide", "strain": "cyclin A1-Cln2 strain", "sample": "peptide tiling library", "direction": "direction not given"}
{"Sequence": "SAVPLILPQAPSGPSY", "enrichment score": 1.28}
{"Sequence": "FQDSGYNELKSCSFDN", "enrichment score": 1.14}
{"Sequence": "KPHVSDEEEEEPPFYH", "enrichment score": 1.52}
{"Sequence": "SSEVARHLLFQSHM", "enrichment score": -1.02}
{"Sequence": "PKNAKRNLSSEFAN", "enrichment score": -0.501}
{"Sequence": "GLPDFVFQQQPVESEA", "enrichment score": 1.51}
{"data": "Sample 4", "target": "Prothrombin, mature alpha-thrombin (F2, Homo sapiens, UniProt P00734)", "method": "aptamer microarray, sandwich", "molecule type": "DNA with 2'F-ANA", "sample": "in vitro", "tested at": "200 nM", "setting": "whole 15-mer aptamer, many near background", "together with": "Cy3 exosite-II aptamer, 400 nM", "direction": "higher = stronger binding", "sequence": "GGTTGGTGTGGTTGG"}
{"Modification": "2'F-ANA at 2 8 10 11 12 14 15", "mean fluorescence intensity": "98.6 a.u."}
{"Modification": "2'F-ANA at 6 8 9 11 14 15", "mean fluorescence intensity": "142 a.u."}
{"Modification": "2'F-ANA at 2 3 4 6 12 13 14 15", "mean fluorescence intensity": "269 a.u."}
{"Modification": "2'F-ANA at 1 2 4 5 6 11 12 13 14 15", "mean fluorescence intensity": "49.3 a.u."}
{"Modification": "2'F-ANA at 1 2 4 7 8 12 14", "mean fluorescence intensity": "69 a.u."}
{"Modification": "2'F-ANA at 2 4 5 6 9 11 14 15", "mean fluorescence intensity": "47.5 a.u."}
{"Modification": "2'F-ANA at 1 2 4 5 6 8 9 11 12 13", "mean fluorescence intensity": "69.4 a.u."}
{"Modification": "2'F-ANA at 4 5 8 9 10 11 12 15", "mean fluorescence intensity": "47 a.u."}
{"Modification": "2'F-ANA at 2 4 5 7 8 9 11 14 15", "mean fluorescence intensity": "126 a.u."}
{"Modification": "2'F-ANA at 2 3 7 12 15", "mean fluorescence intensity": "1070 a.u."}
{"Modification": "2'F-ANA at 4 6 7 12 13 14 15", "mean fluorescence intensity": "98.4 a.u."}
{"Modification": "2'F-ANA at 1 3 4 5 7 9 12 13 14 15", "mean fluorescence intensity": "45.3 a.u."}
{"Modification": "2'F-ANA at 2 3 4 6 7 11 13 14 15", "mean fluorescence intensity": "211 a.u."}
{"Modification": "2'F-ANA at 1 4 5 6 8 10 14", "mean fluorescence intensity": "49.3 a.u."}
{"Modification": "2'F-ANA at 1 3 4 5 6 7 9 10 13 15", "mean fluorescence intensity": "49.8 a.u."}
{"Modification": "2'F-ANA at 2 3 4 5 6 10 11 13", "mean fluorescence intensity": "58.8 a.u."}
{"Modification": "2'F-ANA at 1 4 5 7 8 12 13 14 15", "mean fluorescence intensity": "49.2 a.u."}
{"Modification": "2'F-ANA at 4 6 7 9 10 11 12 13 14", "mean fluorescence intensity": "82.9 a.u."}
{"Modification": "2'F-ANA at 1 5 6 7 10 12 14", "mean fluorescence intensity": "48.8 a.u."}
{"Modification": "2'F-ANA at 1 2 6 8 9 10 14 15", "mean fluorescence intensity": "50.1 a.u."}
{"Modification": "2'F-ANA at 1 10 11 15", "mean fluorescence intensity": "52.9 a.u."}
{"Modification": "2'F-ANA at 3 4 6 7 11 15", "mean fluorescence intensity": "509 a.u."}
{"Modification": "2'F-ANA at 1 3 6 8 12", "mean fluorescence intensity": "589 a.u."}
{"Modification": "2'F-ANA at 1 2 3 4 5 7 10 11 12 14", "mean fluorescence intensity": "67.5 a.u."}
{"Modification": "2'F-ANA at 3 4 5 6 7 10 13 15", "mean fluorescence intensity": "47.6 a.u."}
{"note": "A few entries again (sample 3):"}
{"Sequence": "GLPDFVFQQQPVESEA", "enrichment score": 1.51}
{"Sequence": "SSEVARHLLFQSHM", "enrichment score": -1.02}
{"Sequence": "SAVPLILPQAPSGPSY", "enrichment score": 1.28}
{"Sequence": "KPHVSDEEEEEPPFYH", "enrichment score": 1.52}
{"Sequence": "PKNAKRNLSSEFAN", "enrichment score": -0.501}
{"Sequence": "FQDSGYNELKSCSFDN", "enrichment score": 1.14}
